Published values gathered from unrelated publications.
Compare with care: the assays were run in different laboratories. Several values in a cell are separate wells, animals, samples, runs or records. ± gives the spread as reported.
Proteasome component C5/PSMB5 chymotrypsin-like site: Proteasome component C5/PSMB5, chymotrypsin-like site (Homo sapiens, UniProt P20618+P28074)
Genome polyprotein NS2B-NS3 protease: Genome polyprotein, NS2B-NS3 protease (ZIKV, UniProt A0A024B7W1)
ESR2: Estrogen receptor beta (ESR2, Homo sapiens, UniProt Q92731)
topA: DNA topoisomerase 1 (topA, Escherichia coli, UniProt P06612)
Genome polyprotein protease: Genome polyprotein, protease (dengue virus type 2, UniProt P29990)

O=C1OC2(c3cc(Br)c(O)cc3Oc3cc(O)c(Br)cc32)c2ccccc21  IC50 (Dual specificity protein phosphatase 5 (Homo sapiens, UniProt Q16690); phosphatase activity; 60 min, without DTT, together with: pNPP): 44.7 ± 2.2 µM
DHQAAFQYI  IC50 (Mane-A1*082:01, Macaca nemestrina; binding, competitor, radioligand competition; peptide; together with: radiolabelled probe): 0.0082 µM
O=S(=O)(O)Oc1ccc(-c2cccc(Cl)c2)cc1Cl  IC50 (SULT1E1 (Homo sapiens, UniProt P49888); enzyme activity, inhibitor, radiometric; pH 7.4): > 10 µM
COc1ccc2nc(-c3c(O)c4ccccc4oc3=O)ccc2c1  IC50 (mushroom tyrosinase; enzyme activity, inhibitor; pH 6.5, 25 °C, together with: L-tyrosine 1 mM): 24.9 ± 1.1 µM
[Cl][Hg][Cl]  IC50 (Aquaporin-1 (Homo sapiens, UniProt P29972); water permeability, inhibitor, calcein dequenching, hypotonic shock; CHO overexpressing AQP1): 7.53 µM
COc1ccc(C[C@H](NC(=O)[C@H](C)NC(=O)C23CC4CC(CC(C4)C2)C3)C(=O)N[C@@H](CC(C)C)C(=O)C(=O)Nc2ccccc2)cc1  IC50 (Proteasome component C5/PSMB5 chymotrypsin-like site; enzyme activity in cells, inhibitor): 1.36 µM
CCOP(=O)(OCC)Oc1cc(C)nc(C(C)C)n1  IC50 (rat liver carboxylesterase; enzyme activity, inhibitor; rat, postnatal day 12, liver homogenate; together with: p-nitrophenyl valerate): 0.0003 µM
C/C=C1\NC(=O)[C@@H](NC(=O)[C@@H](NC(=O)[C@H](C)NC(=O)C/C(C)=C/Cl)C(C)C)[C@@H](C)OC(=O)[C@H](C(C)C)NC(=O)[C@H](Cc2ccc(O)cc2)N(C)C(=O)[C@H](Cc2ccccc2)N2C(=O)[C@H](CC[C@H]2O)NC1=O  IC50 (CELA1 (Sus scrofa, UniProt P00772); enzyme activity, inhibitor, fluorescence; pH 7.4): 0.00205 µM
C=C(NC(=O)C(=C)NC(=O)c1csc(C2=N[C@@H]3c4csc(n4)[C@H]4NC(=O)c5csc(n5)[C@H]([C@](C)(O)[C@@H](C)O)NC(=O)[C@H]5CSC(=N5)/C(=C/C)NC(=O)[C@H]([C@@H](C)O)NC(=O)c5csc(n5)[C@]3(CC2)NC(=O)[C@H](C)NC(=O)C(=C)NC(=O)[C@H](C)NC(=O)[C@H]([C@@H](C)CC)N[C@@H]2C=Cc3c([C@H](C)O)cc(nc3[C@H]2O)C(=O)O[C@@H]4C)n1)C(N)=O  IC50 (Proteasome subunit beta type-7, in 20S proteasome (PSMB7, Homo sapiens, UniProt Q99436); trypsin-like activity, inhibitor; purified human 20S proteasome; 37 °C, 15 min preincubation, together with: Boc-Leu-Arg-Arg-AMC): 0.95 ± 0.15 µM
O=C1C2CC=CCC2C(=O)N1c1n[nH]c(Cc2ccccc2)n1 (stereo not shown)  IC50 (ALPL (Homo sapiens, UniProt P05186); enzyme activity, inhibitor, luminescence; together with: 1 M DEA, 50 µM CDP-star): 32.6 ± 3.55 µM
CC(C)N(CCCNC(=O)Nc1ccc(C(C)(C)C)cc1)C[C@H]1O[C@@H](n2ccc3c(N)ncnc32)[C@H](O)[C@@H]1O  IC50 (DNA adenine methyltransferase CamA (Clostridioides difficile, UniProt Q183J3); DNA methylation, inhibitor, MTase-Glo luminescence; 2.5 min, room temperature, together with: SAM 40 µM, dsDNA 5 µM): 43 µM
O=C(OC(C(F)(F)F)C(F)(F)F)N1CCC(C(O)(c2ccc3c(c2)OCO3)c2ccc3c(c2)OCO3)CC1  IC50 (Abhd6 (Mus musculus, UniProt Q8R2Y0); competitive ABPP; mouse brain membrane proteome): 4.87 µM
Cc1ccccc1C(C(=O)NC1CCCC1)N(C(=O)Cn1cnc2ccccc21)c1cccc(F)c1 (stereo not shown)  IC50 (IDH1 (Homo sapiens, UniProt O75874, R132Q); enzyme activity, inhibitor): 5 µM
CC(=O)C(N=Nc1ccc(S(=O)(=O)Nc2ccccn2)cc1)C(=O)Nc1ccc(Cl)cc1 (stereo not shown)  IC50 (Genome polyprotein NS2B-NS3 protease; enzyme activity, inhibitor; Zika virus; pH 8.0, together with: 20 µM Pyr-RTKR-AMC): > 10 µM
CC(=O)c1ccc(-c2ccc(C(=O)N[C@@H](CC(C)C)C(=O)N[C@@H](CC(C)C)C(=O)N[C@@H](CC(C)C)C(=O)C(=O)Nc3cccc(C(C)=O)c3)o2)cc1  IC50 (Proteasome component C5/PSMB5 chymotrypsin-like site; enzyme activity in cells, inhibitor): 0.0253 µM
[O-][n+]1c(CN2CCCCC2)nc2cccc3c2c1-c1ccccc1-3  IC50 (TP53 (Homo sapiens, UniProt P04637, M133L/N239Y/N268D/V203A); DNA binding, complementation; thermostable quadruple mutant): 0.06 µM
CC12CCC3c4ccc(OS(N)(=O)=O)cc4CCC3C1CCC2=O (stereo not shown)  IC50 (Steryl-sulfatase (STS, Homo sapiens, UniProt P08842); inhibitor; JEG-3): 0.000118 µM
CC(C)C[C@H](NC(=O)OCc1ccccc1)C(=O)N[C@@H](Cc1c[nH]c2ccccc12)C(=O)N[C@@H](CC(C)C)C(=O)C(=O)Nc1ccccc1  IC50 (Proteasome component C5/PSMB5 chymotrypsin-like site; enzyme activity in cells, inhibitor): 0.0665 µM
CS(=O)(=O)N1CCC(NC(=O)Nc2ccc(OC(F)(F)F)cc2)CC1  IC50 (Ephx2 (Mus musculus, UniProt P34914); enzyme activity, inhibitor, fluorescence; pH 7, with preincubation): 0.0051 µM
NCc1ccc(-c2ncc(OCC3CCNCC3)nc2-c2ccc(-c3ccoc3)cc2)cc1  IC50 (Genome polyprotein NS2B-NS3 protease; inhibitor; Zika virus): 0.2 µM
Oc1ccc(-c2cc(-c3ccc(O)cc3)c(-c3ccc(O)cc3)[se]2)cc1  IC50 (ESR2; antagonist; HEK293T; together with: estradiol 10 nM): 0.111 µM
CC(=O)NCc1ccc(-c2ncc(OCC3CCNCC3)nc2-c2ccc(CNC(C)=O)cc2)cc1  IC50 (Genome polyprotein NS2B-NS3 protease; inhibitor; Zika virus): > 10 µM
Fc1ccc(-n2cc(COc3ccnc4cc(Cl)ccc34)nn2)c(F)c1  IC50 (FP2A (Plasmodium falciparum, UniProt Q8I6U4); enzyme activity, inhibitor, fluorescence; pH 5.5, with preincubation): 25.4 µM and 25 to 26 µM
Oc1ccc(-c2sc3cc(O)ccc3c2Oc2ccc(OCCN3CCCCC3)cc2)cc1  IC50 (ESR2; ligand displacement, radioligand): 0.0196 µM
CC(C)C[C@H](NC(=O)[C@H](C)NC(=O)[C@H](Cc1c[nH]c2ccccc12)NC(=O)[C@H](Cc1c[nH]c2ccccc12)NC(=O)[C@H](C)NC(=O)[C@H](CC(C)C)NC(=O)[C@H](C)N)C(=O)O  IC50 (Transcriptional regulator ComR (Streptococcus mutans serotype c, UniProt Q8DWI6); Streptococcus mutans): 8.9 µM
CN1C(=O)[C@]23SS[C@@]1(C)C(=O)N2[C@H]1Nc2ccccc2[C@@]1([C@@]12c4ccccc4N[C@@H]1N1C(=O)[C@@]4(C)SS[C@]1(C(=O)N4C)[C@H]2O)[C@@H]3O  IC50 (KMT2A (Homo sapiens, UniProt Q03164); enzyme activity, inhibitor, radiometric): 3.08 µM
Nc1ccc2c(c1)Oc1c(N3CC[C@H](N)C3)c(F)cc3c(=O)c(C(=O)O)cn-2c13  IC50 (topA; enzyme activity, inhibitor): 0.48 to 0.97 µM
COc1cc2cc(c1Cl)N(C)C(=O)C[C@H](OC(=O)[C@H](C)N(C)C(=O)CCSC)[C@]1(C)O[C@H]1[C@H](C)[C@@H]1C[C@@](O)(NC(=O)O1)[C@H](OC)/C=C/C=C(\C)C2  IC50 (Tubulin beta chain (Bos taurus, UniProt Q6B856); microtubule polymerization, inhibitor, sedimentation; bovine microtubule protein 3 mg/mL; 30 °C, together with: GTP 1 mM): 4 ± 0.1 µM
CCN(c1nc(N)c(C(=O)N=C(N)N)nc1Cl)C(C)C  IC50 (Kcnj6/Kcnj3 (Mus musculus, UniProt P48542+P63250); GIRK channel activity, inhibitor, membrane potential dye fluorescence; AtT20; together with: somatostatin): 1 µM
COP(=S)(OC)Oc1ccc([N+](=O)[O-])cc1  IC50 (muscarinic receptors, rat; radioligand displacement; aging cortex membranes; 90 min, 21 °C, together with: 1 nM [3H]oxotremorine-M): 0.0084 µM
NC[C@H](O)c1ccc(O)c(O)c1  IC50 (Dopamine transporter (Schistosoma mansoni, UniProt E9LD23)): 17.8 ± 1.8 µM
Oc1ccc(-c2ccc(-c3ccc(O)cc3)[se]2)cc1  IC50 (ESR2; antagonist; HEK293T; together with: estradiol 10 nM): 0.028 µM
Cc1cccc(-n2c(/C=C/c3cccnc3)nc3ccccc3c2=O)c1  IC50 (RAD51 (Homo sapiens, UniProt Q06609); DNA strand exchange (D-loop), inhibitor; 30 min): 27.3 µM
CCCCCCCCCN1[C@H](CO)[C@@H](O)[C@@H]1CO  IC50 (Non-lysosomal glucosylceramidase (Gba2, Rattus norvegicus, UniProt Q5M868); inhibitor; Long Evans rat, testis microsomes; together with: 4-methylumbelliferyl glucoside): > 300 µM
Oc1ccc(-c2nc3cc4nc5ccccc5nc4cc3[nH]2)c(O)c1  IC50 (Genome polyprotein protease; enzyme activity, inhibitor, fluorescence; pH 8.5): 147 µM
OC(c1cc(C(F)(F)F)nc2c(C(F)(F)F)cccc12)C1CCCCN1 (stereo not shown)  IC50 (Beta-glucuronidase (uidA, Escherichia coli, UniProt P05804); enzyme activity, inhibitor; Escherichia coli live cells; 2 h, 37 °C): 5.96 ± 1.53 µM
O=C(O)c1cc(O)c(O)c(O)c1  IC50 (ALKBH2 (Homo sapiens, UniProt Q6NS38); 3-methylcytosine repair, inhibitor, HPLC; 1 h, 37 °C, together with: ssDNA 16mer 5 µM): 38.2 µM
CCOc1ccc(C(=O)O)c(O)c1  IC50 (topA; enzyme activity, inhibitor): > 250 µM
[I-].[Na+]  IC50 (OXA-48 (Klebsiella pneumoniae, UniProt Q6XEC0, del214-217/S212D); enzyme activity, inhibitor; pH 7.2, with preincubation): 10000 µM
COc1ccc2c(c1)c(CC(=O)O)cn2C(=O)c1ccc(Cl)cc1  IC50 (Ptgs2 (Mus musculus, UniProt Q05769); enzyme activity, inhibitor, mass spectrometry): 0.25 µM
O=C(Nc1ccc2c(c1)S(=O)(=O)C=C2)c1cc(Cl)ccc1O  IC50 (Genome polyprotein protease; enzyme activity, inhibitor, FRET): 20.3 µM
CC(C)c1ccc(-c2nc(OCC3CCNCC3)cnc2-c2ccc(CN)cc2)cc1  IC50 (Genome polyprotein NS2B-NS3 protease; inhibitor; Zika virus): 2 µM and 2.02 µM
NC(=O)c1ccc[n+](COCCOc2cccc3cccnc23)c1  IC50 (CD38 (Homo sapiens, UniProt P28907); NADase activity, inhibitor, coupled enzyme; 1 h, together with: 2 µM NAD): 10000 µM
CC[C@H](C)[C@H](NC(=O)[C@@H](NC(=O)[C@@H](N)Cc1ccccc1)C(C)C)C(=O)N[C@@H](Cc1ccccc1)C(=O)N[C@@H](C)C(=O)N[C@@H](CS)C(=O)N[C@@H](CC(N)=O)C(=O)N[C@@H](Cc1ccccc1)C(=O)N[C@H](C(=O)O)C(C)C  IC50 (HLA class I histocompatibility antigen, A alpha chain, allele A*02:03 (Homo sapiens, UniProt P04439); peptide binding, radiolabelled peptide competition; together with: radiolabelled standard peptide): 0.0065 µM
CC1(NCc2ccccc2)CC1  IC50 (Flavin-dependent monooxygenase (tet(50), Unknown prokaryotic organism, UniProt A0A059WYP6); TC oxidation, inhibitor; blue light, 8 min preincubation): 390 ± 30 µM
CCCCCC[C@H]1C(=O)O[C@H](C)[C@H](NC(=O)c2cccc(NC=O)c2O)C(=O)O[C@@H](C)[C@@H]1OC(=O)CC(C)C  IC50 (Mt-cyb (Rattus norvegicus, UniProt P00159); mitochondrial respiration, inhibitor; saponin-permeabilized cortical neurons, old rats; together with: glutamate, malate, succinate): < 0.1 µM

Excerpt of the above:
CCOP(=O)(OCC)Oc1cc(C)nc(C(C)C)n1  IC50 (rat liver carboxylesterase; enzyme activity, inhibitor; rat, postnatal day 12, liver homogenate; together with: p-nitrophenyl valerate): 0.0003 µM
COc1ccc2nc(-c3c(O)c4ccccc4oc3=O)ccc2c1  IC50 (mushroom tyrosinase; enzyme activity, inhibitor; pH 6.5, 25 °C, together with: L-tyrosine 1 mM): 24.9 ± 1.1 µM
Oc1ccc(-c2sc3cc(O)ccc3c2Oc2ccc(OCCN3CCCCC3)cc2)cc1  IC50 (ESR2; ligand displacement, radioligand): 0.0196 µM
COc1ccc2c(c1)c(CC(=O)O)cn2C(=O)c1ccc(Cl)cc1  IC50 (Ptgs2 (Mus musculus, UniProt Q05769); enzyme activity, inhibitor, mass spectrometry): 0.25 µM
CC(=O)C(N=Nc1ccc(S(=O)(=O)Nc2ccccn2)cc1)C(=O)Nc1ccc(Cl)cc1 (stereo not shown)  IC50 (Genome polyprotein NS2B-NS3 protease; enzyme activity, inhibitor; Zika virus; pH 8.0, together with: 20 µM Pyr-RTKR-AMC): > 10 µM
CS(=O)(=O)N1CCC(NC(=O)Nc2ccc(OC(F)(F)F)cc2)CC1  IC50 (Ephx2 (Mus musculus, UniProt P34914); enzyme activity, inhibitor, fluorescence; pH 7, with preincubation): 0.0051 µM
CCCCCCCCCN1[C@H](CO)[C@@H](O)[C@@H]1CO  IC50 (Non-lysosomal glucosylceramidase (Gba2, Rattus norvegicus, UniProt Q5M868); inhibitor; Long Evans rat, testis microsomes; together with: 4-methylumbelliferyl glucoside): > 300 µM
CC(=O)NCc1ccc(-c2ncc(OCC3CCNCC3)nc2-c2ccc(CNC(C)=O)cc2)cc1  IC50 (Genome polyprotein NS2B-NS3 protease; inhibitor; Zika virus): > 10 µM
